Published values from different studies.
Parts stem from different laboratories: compare values within a part only.

Series 1 — method: aptamer microarray, sandwich; form: DNA with 2'F-ANA; matrix: in vitro; concentration: 200 nM; with: Cy3 exosite-II aptamer, 400 nM; reading: higher = stronger binding
Target: Prothrombin, mature alpha-thrombin (F2, Homo sapiens, UniProt P00734)
Setting: whole 15-mer aptamer, many near background
`GGTTGGTGTGGTTGG (2'F-ANA at 2 3 11 12 14 15)`: “mean fluorescence intensity” 458 a.u.
Under “mean fluorescence intensity”, `GGTTGGTGTGGTTGG (2'F-ANA at 1 9 10 12 13 15)` is recorded as 74.7 a.u.
Under “mean fluorescence intensity”, `GGTTGGTGTGGTTGG (2'F-ANA at 1 3 4 5 7 10 13 14 15)` is recorded as 46 a.u.

Series 2 — method: universal PBM; form: double-stranded DNA, one strand shown; matrix: in vitro; concentration: not given; reading: higher = stronger binding
Target: Sal-like protein 4, full length isoform B (SALL4, Homo sapiens, UniProt Q9UJQ4-2, residues 1-616)
Setting: 8-mer, flanks averaged, mean of replicates
`CCGAAGAC` has an E-score of -0.165.
`GGAGCAAA` has an E-score of 0.0921.
`CCGTGAGG` has an E-score of -0.384.
`ATACACTA` has an E-score of 0.192.

Series 3 — method: protein-binding microarray; form: double-stranded DNA, one strand shown; matrix: in vitro; concentration: 2540 nM top; setting: 60-bp whole probe; with: salmon DNA 0.4 mg/ml; reference: random background probes; reading: higher = stronger binding; shared flanks, not repeated: GCCTAGCAC … GTCTTGATTCGCTTGACGCTGCTG
Target: Interferon regulatory factor 3, full length, phosphomimetic (IRF3, Homo sapiens, UniProt Q14653, residues 1-427, S386D/S396D/S398D/S402D/T404D/S405D)
Construct (chain): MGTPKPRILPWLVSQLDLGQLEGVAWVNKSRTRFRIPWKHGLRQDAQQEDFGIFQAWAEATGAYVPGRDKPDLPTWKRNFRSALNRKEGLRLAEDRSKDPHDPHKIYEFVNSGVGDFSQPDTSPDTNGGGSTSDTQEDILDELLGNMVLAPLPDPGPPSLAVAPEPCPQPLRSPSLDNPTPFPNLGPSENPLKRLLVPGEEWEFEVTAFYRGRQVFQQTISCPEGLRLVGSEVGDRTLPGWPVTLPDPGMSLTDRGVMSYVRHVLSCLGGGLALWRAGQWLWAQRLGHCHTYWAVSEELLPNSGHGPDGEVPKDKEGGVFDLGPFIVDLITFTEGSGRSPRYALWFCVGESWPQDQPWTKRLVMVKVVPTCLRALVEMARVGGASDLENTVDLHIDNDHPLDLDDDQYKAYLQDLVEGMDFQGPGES
Under “fitted relative affinity”, `TTCGGTTTCGGACTGGGTTAGTGCTAG` is recorded as 5.15 z-score.
Under “fitted relative affinity”, `TACGGTATCGACTATCGGGACGTGCTA` is recorded as 0.532 z-score.
For `TTAGGTATCTGGTTTCGGTTAGTGCTA`, “fitted relative affinity” read 3.9 z-score.
`TAAGGACTGGGTTTCGGTTAGTGCTAG`: “fitted relative affinity” 3.39 z-score.
`CGGCCTCTAGGTTTTCTGAAGTGCTAG`: “fitted relative affinity” -0.74 z-score.

Single results of other studies
`PhoQ, residues 284 288 289 292 302 303 TSTLRA` has a fold induction of 0.677 (PhoP, residues 12 14 15 18 19 LHSVW (Escherichia coli, UniProt P23836); Sort-seq, refers to: YFP reporter; E. coli; PhoQ-PhoP variant library, with: 10 µM Mg2+; reference: high Mg2+ state, higher = stronger signaling).
